Results of several laboratories.
Numbered parts are unrelated; each lists some results of a single study.
UniProt P42336, sequence (whole entry, unmodified, looked up): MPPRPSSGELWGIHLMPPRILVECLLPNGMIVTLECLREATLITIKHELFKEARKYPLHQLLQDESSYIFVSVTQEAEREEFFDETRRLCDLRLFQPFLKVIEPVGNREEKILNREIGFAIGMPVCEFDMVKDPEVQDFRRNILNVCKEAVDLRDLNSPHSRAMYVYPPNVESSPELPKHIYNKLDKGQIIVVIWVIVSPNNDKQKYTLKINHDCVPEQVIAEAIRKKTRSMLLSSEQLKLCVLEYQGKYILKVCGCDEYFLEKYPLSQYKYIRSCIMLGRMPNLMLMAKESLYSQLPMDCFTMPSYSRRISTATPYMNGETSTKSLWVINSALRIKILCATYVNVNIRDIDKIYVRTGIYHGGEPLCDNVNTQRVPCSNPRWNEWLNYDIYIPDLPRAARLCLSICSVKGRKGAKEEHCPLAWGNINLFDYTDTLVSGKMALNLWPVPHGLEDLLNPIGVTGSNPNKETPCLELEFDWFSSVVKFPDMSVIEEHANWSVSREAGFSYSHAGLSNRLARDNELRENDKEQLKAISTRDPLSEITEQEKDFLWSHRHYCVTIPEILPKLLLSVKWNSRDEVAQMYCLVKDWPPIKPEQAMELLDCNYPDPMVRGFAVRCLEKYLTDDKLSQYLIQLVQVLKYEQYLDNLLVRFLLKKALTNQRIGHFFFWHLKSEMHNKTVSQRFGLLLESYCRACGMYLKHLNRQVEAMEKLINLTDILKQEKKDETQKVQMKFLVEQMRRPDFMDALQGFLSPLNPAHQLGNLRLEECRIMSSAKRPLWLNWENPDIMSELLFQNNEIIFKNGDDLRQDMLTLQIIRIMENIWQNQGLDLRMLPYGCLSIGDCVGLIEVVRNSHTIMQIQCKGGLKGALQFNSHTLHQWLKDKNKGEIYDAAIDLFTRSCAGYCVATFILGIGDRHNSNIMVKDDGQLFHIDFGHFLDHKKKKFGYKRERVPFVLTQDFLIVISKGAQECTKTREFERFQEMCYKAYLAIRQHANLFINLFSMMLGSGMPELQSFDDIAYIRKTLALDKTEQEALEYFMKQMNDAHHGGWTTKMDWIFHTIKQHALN
UniProt P51956, sequence (whole entry, looked up): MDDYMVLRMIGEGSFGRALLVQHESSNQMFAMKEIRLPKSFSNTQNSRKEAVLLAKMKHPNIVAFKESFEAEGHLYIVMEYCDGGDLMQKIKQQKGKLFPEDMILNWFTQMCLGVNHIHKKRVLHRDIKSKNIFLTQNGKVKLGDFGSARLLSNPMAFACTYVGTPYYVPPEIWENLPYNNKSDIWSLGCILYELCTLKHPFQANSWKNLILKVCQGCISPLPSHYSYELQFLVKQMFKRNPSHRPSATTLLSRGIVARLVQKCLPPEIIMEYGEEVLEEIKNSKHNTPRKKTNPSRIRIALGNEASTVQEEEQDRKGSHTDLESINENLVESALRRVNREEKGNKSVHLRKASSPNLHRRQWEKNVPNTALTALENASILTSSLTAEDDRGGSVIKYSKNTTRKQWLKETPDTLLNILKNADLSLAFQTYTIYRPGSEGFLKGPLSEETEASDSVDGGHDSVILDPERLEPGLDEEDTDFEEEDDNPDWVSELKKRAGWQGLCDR
UniProt O75716, sequence (whole entry, looked up): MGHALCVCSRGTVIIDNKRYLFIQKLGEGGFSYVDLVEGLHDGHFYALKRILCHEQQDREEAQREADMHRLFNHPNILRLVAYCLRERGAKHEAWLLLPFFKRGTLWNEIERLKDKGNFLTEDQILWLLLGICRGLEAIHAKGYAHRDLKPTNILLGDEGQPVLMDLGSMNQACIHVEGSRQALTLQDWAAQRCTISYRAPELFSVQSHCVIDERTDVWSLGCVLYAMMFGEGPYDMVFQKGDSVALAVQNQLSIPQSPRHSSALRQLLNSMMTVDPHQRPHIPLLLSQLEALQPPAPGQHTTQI
UniProt P11362, sequence (whole entry, looked up): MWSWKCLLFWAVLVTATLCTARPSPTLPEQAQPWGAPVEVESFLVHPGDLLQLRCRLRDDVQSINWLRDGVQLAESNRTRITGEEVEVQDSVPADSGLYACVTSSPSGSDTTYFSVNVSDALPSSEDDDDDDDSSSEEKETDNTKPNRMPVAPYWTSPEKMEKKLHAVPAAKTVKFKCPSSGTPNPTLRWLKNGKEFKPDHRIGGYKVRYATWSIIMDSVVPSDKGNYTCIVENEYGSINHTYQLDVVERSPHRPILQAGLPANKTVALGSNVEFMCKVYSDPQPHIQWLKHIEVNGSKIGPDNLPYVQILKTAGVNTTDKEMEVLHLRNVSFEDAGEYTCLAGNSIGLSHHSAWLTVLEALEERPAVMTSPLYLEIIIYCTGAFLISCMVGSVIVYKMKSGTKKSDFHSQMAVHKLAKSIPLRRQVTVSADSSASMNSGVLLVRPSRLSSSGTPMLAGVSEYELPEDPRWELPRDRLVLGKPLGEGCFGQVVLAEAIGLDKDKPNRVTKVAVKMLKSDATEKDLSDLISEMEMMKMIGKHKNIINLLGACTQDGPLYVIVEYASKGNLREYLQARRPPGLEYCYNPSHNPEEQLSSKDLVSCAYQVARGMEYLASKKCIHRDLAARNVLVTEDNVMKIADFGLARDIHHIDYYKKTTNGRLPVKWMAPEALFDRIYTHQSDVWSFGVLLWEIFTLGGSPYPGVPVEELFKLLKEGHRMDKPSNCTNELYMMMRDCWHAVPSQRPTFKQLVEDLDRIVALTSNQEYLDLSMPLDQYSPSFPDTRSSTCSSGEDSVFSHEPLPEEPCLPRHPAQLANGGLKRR
UniProt P45985, sequence (whole entry, looked up): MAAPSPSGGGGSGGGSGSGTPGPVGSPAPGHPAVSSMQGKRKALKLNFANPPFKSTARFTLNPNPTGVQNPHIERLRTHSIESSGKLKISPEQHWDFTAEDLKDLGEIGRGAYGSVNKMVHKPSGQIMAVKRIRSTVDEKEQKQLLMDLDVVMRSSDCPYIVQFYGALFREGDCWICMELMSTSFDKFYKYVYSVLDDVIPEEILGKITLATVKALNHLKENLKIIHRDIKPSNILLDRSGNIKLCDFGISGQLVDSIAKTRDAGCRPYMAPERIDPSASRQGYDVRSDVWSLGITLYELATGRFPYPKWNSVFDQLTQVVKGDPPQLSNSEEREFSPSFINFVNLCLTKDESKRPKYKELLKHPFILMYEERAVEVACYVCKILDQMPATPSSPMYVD
UniProt Q13153, sequence (whole entry, looked up): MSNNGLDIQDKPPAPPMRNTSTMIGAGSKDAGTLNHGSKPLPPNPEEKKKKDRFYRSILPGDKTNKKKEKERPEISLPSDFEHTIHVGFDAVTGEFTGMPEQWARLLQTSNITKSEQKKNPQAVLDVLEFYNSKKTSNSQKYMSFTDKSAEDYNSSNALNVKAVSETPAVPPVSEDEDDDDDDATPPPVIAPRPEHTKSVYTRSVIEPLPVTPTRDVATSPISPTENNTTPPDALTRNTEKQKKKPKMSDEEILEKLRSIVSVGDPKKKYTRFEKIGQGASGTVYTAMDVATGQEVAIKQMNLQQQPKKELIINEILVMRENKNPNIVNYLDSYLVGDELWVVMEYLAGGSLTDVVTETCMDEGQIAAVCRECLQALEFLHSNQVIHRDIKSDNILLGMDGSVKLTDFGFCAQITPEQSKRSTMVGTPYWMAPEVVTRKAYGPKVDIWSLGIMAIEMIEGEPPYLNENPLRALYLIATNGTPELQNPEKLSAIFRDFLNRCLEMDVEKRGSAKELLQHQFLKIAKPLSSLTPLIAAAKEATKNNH

Study 1 — action: antagonist
Target: Beta-1 adrenergic receptor (ADRB1, Homo sapiens, UniProt P08588)
UniProt P08588, sequence (whole entry, looked up): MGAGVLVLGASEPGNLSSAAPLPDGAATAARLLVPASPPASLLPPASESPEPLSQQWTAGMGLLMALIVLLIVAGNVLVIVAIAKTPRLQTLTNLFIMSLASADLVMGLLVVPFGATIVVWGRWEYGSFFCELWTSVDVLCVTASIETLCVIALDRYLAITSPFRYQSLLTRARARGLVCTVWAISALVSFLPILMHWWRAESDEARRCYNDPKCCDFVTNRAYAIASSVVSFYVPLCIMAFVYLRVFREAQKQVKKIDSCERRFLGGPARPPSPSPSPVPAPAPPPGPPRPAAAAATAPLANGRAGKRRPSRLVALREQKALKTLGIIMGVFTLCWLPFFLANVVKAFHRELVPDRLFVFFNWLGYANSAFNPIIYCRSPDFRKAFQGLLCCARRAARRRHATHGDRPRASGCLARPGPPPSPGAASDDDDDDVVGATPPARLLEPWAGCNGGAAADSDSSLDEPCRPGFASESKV
Compound | IC50
COc1ccccc1N1CCN(c2ccc3ccccc3n2)CC1 | ≥ 100 µM
Cc1[nH]c(/C=C2/C(=O)Nc3ccc(F)cc32)c(C)c1C(=O)NC[C@H](O)CN1CCOCC1 | ≥ 100 µM
CCCc1cc(=O)n2nc(N(CC)Cc3cnn(C)c3)sc2n1 | ≥ 100 µM
COc1ccccc1N1CCN([S+](=O)([O-])c2ccc(C)cc2OC)CC1 | ≥ 100 µM
O=C1OC2(c3ccc(O)cc3Oc3cc(O)ccc32)c2cccc(N=C=S)c21 | 12.6 µM
Cc1noc2c(N3CCOCC3)cc(-c3ccc(F)cc3)nc12 | 5.01 µM
CC1=CC(C)(C)NC(Nc2nc(-c3ccccc3)c3ccccc3n2)=N1 | ≥ 100 µM
COc1ccccc1N1CCN([S+](=O)([O-])c2ccc(OC(F)(F)F)cc2)CC1 | ≥ 100 µM
O=C(Nc1ccc([C@@H](O)[C@H]2COCC(=O)N2CCCc2ccccc2)cc1)C1CCC1 | ≥ 100 µM
CN(Cc1ccc(CCN)cc1)Cc1ccc2nsnc2c1 | ≥ 100 µM
CC(CNc1cc(-c2ccccc2)c2ccccc2n1)N1CCOCC1 (stereo not shown) | ≥ 100 µM
Oc1ccc(-c2cc(-c3cccc(N4CCOCC4)c3)cn3cncc23)cn1 | ≥ 100 µM
Cc1ccc(-c2cc(-c3cccnc3)nc3c(C)noc23)c(C)c1 | ≥ 100 µM
CN(Cc1ccccc1)Cc1ccccc1OCC(O)CN1CCCCC1 (stereo not shown) | ≥ 100 µM
CN(C)c1cc(=O)c2ccnc(Nc3cccnc3)c2o1 | ≥ 100 µM
OC(c1cccc(C(F)(F)F)c1)c1nc(Nc2ccc(N3CCOCC3)cc2)n[nH]1 (stereo not shown) | 28.2 µM

Study 2 — observed: enzyme activity; action: inhibitor; concentration: 0.5 µM; reference: control
Target: Mitogen-activated protein kinase kinase kinase 11 (MAP3K11, Homo sapiens, UniProt Q16584)
UniProt Q16584, sequence (whole entry, looked up): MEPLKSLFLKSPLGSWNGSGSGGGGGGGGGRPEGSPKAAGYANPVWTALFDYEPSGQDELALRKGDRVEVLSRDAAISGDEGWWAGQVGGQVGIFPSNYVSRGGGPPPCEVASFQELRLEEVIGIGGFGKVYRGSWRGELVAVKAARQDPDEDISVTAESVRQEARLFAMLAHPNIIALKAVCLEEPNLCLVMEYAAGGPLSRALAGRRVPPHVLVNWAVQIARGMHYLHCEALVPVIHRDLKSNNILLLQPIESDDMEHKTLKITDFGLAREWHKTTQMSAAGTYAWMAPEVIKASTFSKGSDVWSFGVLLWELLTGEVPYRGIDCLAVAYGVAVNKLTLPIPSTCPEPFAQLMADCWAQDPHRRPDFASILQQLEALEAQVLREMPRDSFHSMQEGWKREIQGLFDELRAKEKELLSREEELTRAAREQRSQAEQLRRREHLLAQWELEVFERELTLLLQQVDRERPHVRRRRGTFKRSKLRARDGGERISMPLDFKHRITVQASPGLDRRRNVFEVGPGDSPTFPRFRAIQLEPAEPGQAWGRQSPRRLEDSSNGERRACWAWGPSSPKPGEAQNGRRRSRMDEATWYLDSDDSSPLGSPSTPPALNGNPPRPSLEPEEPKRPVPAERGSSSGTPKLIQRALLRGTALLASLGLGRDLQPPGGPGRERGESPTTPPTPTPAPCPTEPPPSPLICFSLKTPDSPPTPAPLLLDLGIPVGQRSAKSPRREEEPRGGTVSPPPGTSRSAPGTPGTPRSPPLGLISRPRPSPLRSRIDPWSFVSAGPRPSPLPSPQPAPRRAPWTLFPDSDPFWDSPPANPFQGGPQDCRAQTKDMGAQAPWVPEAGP
SMILES | remaining activity [%]
O=C1NC(=O)/C(=C/c2ccc3nccnc3c2)S1 | 97.5
Cn1cnc2cc3c(Nc4cccc(Br)c4)ncnc3cc21 | 94.8
COc1cc2ncnc(N3CCN(C(=O)Nc4ccc(Oc5ccccc5)cc4)CC3)c2cc1OC | 97
Cc1nc(Nc2ncc(C(=O)Nc3c(C)cccc3Cl)s2)cc(N2CCN(CCO)CC2)n1 | 87.5
Cc1ccc(NC(=O)c2ccc(CN3CCN(C)CC3)cc2)cc1Nc1nccc(-c2cccnc2)n1 | 99.7
CC(C)[C@H](CO)Nc1nc(Nc2cccc(Cl)c2)c2ncn(C(C)C)c2n1 | 40.2
CC(C)c1nn(-c2c(Cl)cccc2Cl)c2nc(Cc3ccc(OCCO)cc3)[nH]c(=O)c12 | 101
COc1cc2ncc(-c3ccccc3)nc2cc1OC | 86.8
COc1cc2ncnc(Nc3ccc(OCc4ccccc4)cc3)c2cc1OC | 92.2
Cn1cc(/C=C2\C(=O)Nc3ccc(S(N)(=O)=O)cc32)c2ccccc21 | 9.89
CCOc1cc2ncnc(Nc3cccc(Br)c3)c2cc1OCC | 93
CCC(=O)Nc1ccc2ncnc(Nc3cccc(Br)c3)c2c1 | 97.1
CS(=O)(=O)CCNCc1ccc(-c2ccc3ncnc(Nc4ccc(OCc5cccc(F)c5)c(Cl)c4)c3c2)o1 | 106
O=c1cc(N2CCOCC2)oc2c1ccc1ccccc12 | 99.2
CC(=O)O/N=C1/C(c2c(O)[nH]c3cc(Br)ccc23)=Nc2ccccc21 | 42.5
Nc1[nH]nc2nnc(-c3c(-c4ccccc4)nn4ccccc34)cc12 | 94.3
C[S+]([O-])c1ccc(-c2nc(-c3ccncc3)c(-c3ccc(F)cc3)[nH]2)cc1 (stereo not shown) | 96.4
O=C(Nc1ccc(Cl)cc1)c1ccccc1NCc1ccncc1 | 89
COc1ccc(-c2cnc3c(-c4ccsc4)cnn3c2)cc1 | 51.9
CN(C)CCCn1cc(C2=C(c3c[nH]c4ccccc34)C(=O)NC2=O)c2ccccc21 | 61
COc1ccc(Cl)cc1NC(=O)Nc1cc(C)nc2ccccc12 | 89
CCN1/C(=C/C(C)=O)Sc2ccc(OC)cc21 | 102

Study 3 — technique: competitive binding panel; concentration: 1 µM; reference: vehicle
SMILES: Cc1ccc(NC(=O)c2ccnc(C(F)(F)F)c2)cc1-c1cc(OCCO)nc(N2CCOCC2)c1
target | test | setting | remaining binding [%]
JAK2 (Homo sapiens, UniProt O60674) |  | JH1 catalytic domain | 69
LATS2 (Homo sapiens, UniProt Q9NRM7) |  |  | 98
TLK2 (Homo sapiens, UniProt Q86UE8) |  |  | 95
OXSR1 (Homo sapiens, UniProt O95747) | refers to: OSR1 |  | 89
CAMK4 (Homo sapiens, UniProt Q16566) |  |  | 100
PAK1 (Homo sapiens, UniProt Q13153) |  |  | 85
PIK3CG (Homo sapiens, UniProt P48736) |  |  | 81
IGF1R (Homo sapiens, UniProt P08069) |  |  | 100
SRPK3 (Homo sapiens, UniProt Q9UPE1) |  |  | 93
BMX (Homo sapiens, UniProt P51813) |  |  | 93
NEK3 (Homo sapiens, UniProt P51956) |  |  | 95
TGFBR1 (Homo sapiens, UniProt P36897) |  |  | 100
PIP4K2C (Homo sapiens, UniProt Q8TBX8) | refers to: PIP5K2C |  | 100
BRAF (Homo sapiens, UniProt P15056) |  |  | 0.4
PIK3CA (Homo sapiens, UniProt P42336, E545K) |  |  | 73
SLK (Homo sapiens, UniProt Q9H2G2) |  |  | 92
PIK3CA (Homo sapiens, UniProt P42336, E545A) |  |  | 88
PRKX (Homo sapiens, UniProt P51817) |  |  | 100

Study 4 — observed: cell-free assay; technique: competition with immobilised ligand; concentration: 1 µM
Compound: O=C(Nc1cccnn1)N1CCC(=Cc2cccc(Oc3ccc(C(F)(F)F)cn3)c2)CC1
target | remaining binding
FGFR1 (Homo sapiens, UniProt P11362) | 100%
DMPK (Homo sapiens, UniProt Q09013) | 100%
HCK (Homo sapiens, UniProt P08631) | 98%
ERN1 (Homo sapiens, UniProt O75460) | 92%
SRC (Homo sapiens, UniProt P12931) | 88%
MAP3K1 (Homo sapiens, UniProt Q13233) | 100%
NEK3 (Homo sapiens, UniProt P51956) | 100%
EPHA8 (Homo sapiens, UniProt P29322) | 100%
MAPK11 (Homo sapiens, UniProt Q15759) | 83%
MAP2K4 (Homo sapiens, UniProt P45985) | 100%
AKT2 (Homo sapiens, UniProt P31751) | 81%
FLT3 (Homo sapiens, UniProt P36888, D835V/ITD) | 94%
WEE1 (Homo sapiens, UniProt P30291) | 97%
STK32C (Homo sapiens, UniProt Q86UX6) | 100%
EGFR (Homo sapiens, UniProt P00533, del747-750/T751S) | 83%
MAP3K15 (Homo sapiens, UniProt Q6ZN16) | 100%
STK16 (Homo sapiens, UniProt O75716) | 90%
